Published values of several laboratories.
A part holds a random share of what one study measured.

Series 1
Target: RNA binding protein fox-1 homolog 2, RRM domain, GST-SBP tag (RBFOX2, Homo sapiens, UniProt O43251-10, residues 100-194)
Method: RNA Bind-n-Seq
Form: RNA
Sample: in vitro
Tested at: 365 nM
Setting: natural RNA segment, single round, ends assumed
Reference: no-protein control
Direction: higher = stronger binding
| Oligonucleotide | RBNS enrichment (R) |
| --- | --- |
| GGGAGUUCUACAGUCCGACGAUCAGAAAUCCUUUUUCUUAGGAGUAAAAGCUGGUAAAAGGGGUGACUUCCUGGUUCUGAUCAAAACCAGACCAAACCCUCAUUUCAGCAAAGCCUUGCAAGACACUCCCUUGUGGAAUUCUCGGGUGCCAA | 0.987 |
| GGGAGUUCUACAGUCCGACGAUCAUGUACCUCUCUAGUGAAGUAGAUGCGCAAACAUUCAGUGACAGCAAAUCAGUGUUAGUGACAAGCCCCGACCGUGGCGAUGUGCUGGAAAACACGGACCUUUUGGGUUAUGGAAUUCUCGGGUGCCAA | 0.4 |
| GGGAGUUCUACAGUCCGACGAUCAUGAUGUUGGGUUUAACAUCAUAUGUUCACAGUGUUUUAAAUAAGAAAUAAUCUGUCUUUAGUAUACAGAAUGGUUCUUUGUUUGCCUGAAAAGUAUAAGAAUACAAUUUUGGAAUUCUCGGGUGCCAA | 0.756 |
| GGGAGUUCUACAGUCCGACGAUCUUAUUUGUACUAACUCAGCAUGUAACAACCAAUUUACAUAGAAAUAAAUUGAAAUAUGUUAACUACAUUCUUAAGUGGGGUUGUGUCUAUUAUUUCUGAGUAUUUACUCUUGGAAUUCUCGGGUGCCAA | 18.3 |

Series 2
Target: Interferon regulatory factor 7, full length, phosphomimetic (IRF7, Homo sapiens, UniProt Q92985, residues 1-503, S471D/S472D/S475D/S476D/S477D/S483D/S484D/S487D)
Method: protein-binding microarray
Form: double-stranded DNA, one strand shown
Sample: in vitro
Tested at: 2200 nM top
Setting: 60-bp whole probe
Together with: salmon DNA 0.4 mg/ml
Reference: random background probes
Direction: higher = stronger binding
Shared flanks, not repeated: GCCTAGCAC … GTCTTGATTCGCTTGACGCTGCTG
Target sequence (chain): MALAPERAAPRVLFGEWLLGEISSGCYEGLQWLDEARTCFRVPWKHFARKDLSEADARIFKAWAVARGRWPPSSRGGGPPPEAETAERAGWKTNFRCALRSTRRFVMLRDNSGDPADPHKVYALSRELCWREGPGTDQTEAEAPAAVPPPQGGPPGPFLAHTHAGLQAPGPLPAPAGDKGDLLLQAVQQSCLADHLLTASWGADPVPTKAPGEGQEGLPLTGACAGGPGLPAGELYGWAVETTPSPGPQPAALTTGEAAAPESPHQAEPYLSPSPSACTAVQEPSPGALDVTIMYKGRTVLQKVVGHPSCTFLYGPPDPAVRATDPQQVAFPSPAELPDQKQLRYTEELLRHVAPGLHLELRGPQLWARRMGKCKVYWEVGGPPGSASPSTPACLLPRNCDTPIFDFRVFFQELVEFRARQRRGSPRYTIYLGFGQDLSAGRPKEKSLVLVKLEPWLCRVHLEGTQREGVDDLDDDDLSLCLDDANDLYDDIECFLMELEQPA
| Oligonucleotide | fitted relative affinity [z-score] |
| --- | --- |
| TTAGGTATCCTTTTCCTATAGTGCTAG | 1.51 |
| TTAGGTTTCGGCCTCGGTTAGTGCTAG | 3.21 |
| GACGAACTCGGGACTGGAGACGTGCTA | -0.431 |
| GCTAGTTCAGTTCTCTAGAAGTGCTAG | 0.448 |
| TTAGATTTCGGGTATCGACTAGTGCTA | 2.73 |

Series 3
Target: Histone acetyltransferase KAT6A, both winged helices, GST fusion (KAT6A, Homo sapiens, UniProt Q92794, residues 1-181)
Method: protein binding microarray
Form: double-stranded DNA, one strand shown
Sample: in vitro
Tested at: not given
Setting: 8-mer, flanks averaged, mean of 2 arrays, mostly near background
Reference: not given
Direction: higher = stronger binding
Residues (chain): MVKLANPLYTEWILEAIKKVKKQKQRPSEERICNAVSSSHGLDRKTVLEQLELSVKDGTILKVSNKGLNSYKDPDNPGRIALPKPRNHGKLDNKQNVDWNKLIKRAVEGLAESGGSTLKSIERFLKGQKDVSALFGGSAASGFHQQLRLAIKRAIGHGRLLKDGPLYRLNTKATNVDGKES
| Oligonucleotide | E-score |
| --- | --- |
| AAATGTGC | 0.0597 |
| ACCGCTAT | 0.22 |
| AGCGGTAC | 0.283 |
| CGTCTTGC | 0.105 |

Other studies, line by line
| Substance | target | assay | system | conditions | how to read | measurement | value |
| --- | --- | --- | --- | --- | --- | --- | --- |
| PhoQ, residues 284 288 289 292 302 303 GANMMA | PhoP, residues 12 14 15 18 19 IFFTR (Escherichia coli, UniProt P23836) | Sort-seq, refers to: YFP reporter | E. coli | PhoQ-PhoP variant library, together with: 10 µM Mg2+ | reference: high Mg2+ state, higher = stronger signaling | fold induction | 7.02 |
